Results from different studies.
Lines come from different studies, so protocols differ. “And” joins repeats or separate records; there may be more than shown. Numbers after ± are the reported error. ≈ marks a conversion by molar mass, not a printed value.

Compound	organism	test	test system	setting	scale	measurement	value
CCCC/C=C/C(=O)N[C@@H](Cc1csc2ccccc12)C(=O)N[C@H]1COC(=O)[C@@H]2C[C@@H](C)CN2C(=O)[C@H](C)NC(=O)[C@@H]2CCCCN2C(=O)[C@@H]2CCCN2C1=O	human coronavirus OC43		Huh-7 CLPP knock-out 2	concentration not given, unit not given	baseline: DMSO	RNA release	0.138 and 0.135 and 0.105
CC(=O)N[C@@H](CC(C)C)C(=O)N[C@H]1CSSC[C@@H](C(=O)N2CCC[C@H]2C(N)=O)NC(=O)[C@H]([C@@H](C)O)NC(=O)[C@H](C(C)C)NC(=O)[C@H]([C@@H](C)O)NC(=O)CNC(=O)[C@H](CC(C)C)NC(=O)[C@H](Cc2ccccc2)NC(=O)[C@H](Cc2ccc(O)cc2)NC(=O)[C@H](CC(C)C)NC(=O)[C@H](CCCCN)NC(=O)[C@H](Cc2ccccc2)NC(=O)[C@H](CCCNC(=N)N)NC(=O)[C@H](CCC(N)=O)NC(=O)[C@H](CC(C)C)NC(=O)[C@H](CCCCN)NC(=O)[C@@H]2CCCN2C(=O)[C@H](CCCCN)NC(=O)[C@H](C(C)C)NC(=O)[C@H](CCCCN)NC(=O)[C@H](Cc2ccc(O)cc2)NC(=O)[C@H]([C@@H](C)O)NC1=O	Corynebacterium glutamicum	broth dilution	CGMCC strain	24 h		MIC	< 1.25 µM
CC(C)[C@H]1NC(=O)[C@H](Cc2ccccc2)NC(=O)[C@@H](C(C)C)NC(=O)[C@@H](C)NC(=O)[C@H](CO)NC(=O)[C@@H](Cc2c(-c3ccc(-c4ccccc4)c(F)c3)[nH]c3ccccc23)NC(=O)[C@@H](CO)NC1=O	Vibrio vulnificus	broth dilution				MIC90	> 50 µM
CC(C)CCCCCCCCC/C=C/C(=O)N[C@@H](CC(=O)O)C(=O)N[C@H]1CNC(=O)[C@@H]2CCCN2C(=O)[C@H](C(C)C)NC(=O)[C@@H](CN)NC(=O)CNC(=O)[C@H](CC(=O)O)NC(=O)CNC(=O)[C@H](CC(=O)O)NC(=O)[C@H](CC(=O)O)NC(=O)[C@H]2CCCCN2C1=O	Staphylococcus aureus	broth microdilution	BR-VRSA strain 880, Mueller-Hinton broth, Mg2+ 10 mg/L	16 h, together with: Ca2+ 1.0 mM		MIC	8 µg/mL
Cc1cc(Cl)cc(S(C)=NC#N)c1NC(=O)c1cc(Br)nn1-c1ncccc1Cl (centres unmarked)	Spodoptera litura	leaf-dip	third instar larvae	6.25 ppm, 96 h		mortality	100%
CCOC(=O)C1(Cc2cccc(C(C)C)c2)Oc2cc(F)ccc2N(Cc2cccc(C(C)C)c2)C1=O (centres unmarked)	Amaranthus retroflexus	fresh weight, greenhouse postemergence		postemergence, 150 g ai/ha, 21 days		inhibition	56.3 ± 4.77%
NCCCO.O=C(O)C(Cl)Cl	Amaranthus retroflexus	herbicidal activity		15 mg/mL, 21 days, post-emergence greenhouse		inhibition	80%
COC(=O)C1=CO[C@@H](C)[C@@H]2Cn3ccc4c5ccccc5nc-4c3C[C@H]12	Plasmodium falciparum	growth, [3H]-hypoxanthine uptake	FCR3	72 h	baseline: FCR3 IC50 over 3D7 IC50	resistance index	1.3
CCCCC(CC)COC(=O)CC(C(=O)OCC(CC)CCCC)S(=O)(=O)O.CCCSc1ccc2[nH]c(NC(=O)OC)nc2c1 (centres unmarked)	Cryptococcus neoformans var. grubii	EUCAST broth microdilution	KN99α reference strain	72 h, 37 °C, RPMI with 2% glucose		IC90	1.25 µM
CCc1nn(C)c2nc(-c3ccc(C(=O)O)cc3)nc(NCc3ccccc3)c12	Cryptosporidium parvum		HCT-8	9 x EC90, 24 h	baseline: DMSO control	parasite number	26.7% and 42.2% and 38.4% and 34.2%
[O-][N+]1=C(c2ccc(Cl)cc2)C2=NCCCCN2c2ccccc21	Bacteroides fragilis	microbial growth				MIC50	1 µg/mL (≈ 3.07 µM)
Cc1cc(C(=O)Nc2nc3cccc(C)c3n2[C@H]2CCCCN(C(=O)/C=C/CN(C)C)C2)ccn1	Trypanosoma brucei brucei		2T1 wild type	2.5 µM		survival	-0.0559% and -0.0117% and -0.0654% and -0.07% and -0.0566% and -0.0212%
COc1ccc(C2=[N+]([O-])c3ccccc3N3CCN=C23)cc1	Bacteroides fragilis					MIC90	≤ 0.06 µg/mL
FC(F)(F)c1cccc(CNc2nc(NC3CCN(Cc4ccccc4)CC3)c3nc[nH]c3n2)c1	Cryptococcus neoformans	RNA-seq, refers to: FAB1 (CNAG_01209)		48 µg/mL, 3 h	baseline: untreated	mRNA fold change	1.05

Excerpt of the above:
Compound	organism	test	test system	setting	scale	measurement	value
COc1ccc(C2=[N+]([O-])c3ccccc3N3CCN=C23)cc1	Bacteroides fragilis					MIC90	≤ 0.06 µg/mL
